Measured values of several laboratories.
Every numbered part comes from another study and shows a few of its results, in no order.
Sequence of UniProt P60842 (whole entry, looked up): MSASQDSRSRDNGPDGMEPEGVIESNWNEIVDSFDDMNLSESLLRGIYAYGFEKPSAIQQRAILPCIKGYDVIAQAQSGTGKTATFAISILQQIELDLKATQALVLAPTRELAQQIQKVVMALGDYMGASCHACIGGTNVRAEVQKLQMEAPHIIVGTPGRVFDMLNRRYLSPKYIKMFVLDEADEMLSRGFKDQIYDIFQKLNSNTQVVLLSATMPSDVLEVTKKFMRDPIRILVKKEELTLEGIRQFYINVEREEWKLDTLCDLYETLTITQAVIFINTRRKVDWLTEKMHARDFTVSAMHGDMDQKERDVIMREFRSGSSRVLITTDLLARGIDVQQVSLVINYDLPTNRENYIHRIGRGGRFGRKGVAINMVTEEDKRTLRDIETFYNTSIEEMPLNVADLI

Sample 1 — method: protein-binding microarray; molecule type: hairpin DNA; sample: in vitro; concentration: not given; relative to: not given; reading: higher = stronger binding
Target: Cyclic AMP-responsive element-binding protein 1, full length (CREB1, Homo sapiens, UniProt P16220, residues 1-327)
Sequence of UniProt P16220 (whole entry, looked up): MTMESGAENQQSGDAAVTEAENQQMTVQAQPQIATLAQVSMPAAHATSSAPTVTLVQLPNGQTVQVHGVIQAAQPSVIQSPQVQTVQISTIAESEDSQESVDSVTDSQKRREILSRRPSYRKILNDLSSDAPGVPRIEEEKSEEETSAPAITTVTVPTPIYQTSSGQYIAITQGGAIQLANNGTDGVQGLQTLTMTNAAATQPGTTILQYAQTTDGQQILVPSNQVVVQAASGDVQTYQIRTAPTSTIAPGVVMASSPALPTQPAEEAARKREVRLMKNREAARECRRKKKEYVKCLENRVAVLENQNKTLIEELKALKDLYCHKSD
Setting: whole hairpin DNA, median over replicate spots
Oligonucleotide | median fluorescence
GAGGCCGGCAGACGTCAGCCTCCTGGCTGACGTCTGCCGGCCTCACACTC | 4370 a.u.
GAGGCCGACGACGTCGTGCCTCCTGGCACGACGTCGTCGGCCTCACACTC (5mC at 15 29) | 4070 a.u.
GAGGCCGGCGGACGTCAGCCTCCTGGCTGACGTCCGCCGGCCTCACACTC (5mC at 35) | 4160 a.u.
GAGGCCGGCTGACGTGAGCCTCCTGGCTCACGTCAGCCGGCCTCACACTC | 5260 a.u.

Sample 2 — mode: inhibitor; concentration: 20 µM
Target: Replicase polyprotein 1ab, nsp13 helicase (rep, Severe acute respiratory syndrome coronavirus 2, UniProt P0DTD1)
Compound | inhibition
COc1cccc(-c2c(C)n(Cc3c(F)cccc3C(F)(F)F)c(=O)n(C[C@H](NCCCC(=O)O)c3ccccc3)c2=O)c1F | 9.96%
O[C@H]1[C@H](O)[C@@H](O)[C@H](O)[C@@H](O)[C@H]1O | 2.14%
COc1ccc(-c2cc(C(F)F)nn2-c2ccc(S(N)(=O)=O)cc2)cc1F | 4.04%
COc1cc([C@H]2Oc3ccc([C@H]4Oc5cc(O)cc(O)c5C(=O)[C@@H]4O)cc3O[C@@H]2CO)ccc1O | 4.78%
CCCc1nn(C)c2c(=O)[nH]c(-c3cc(S(=O)(=O)N4CCN(C)CC4)ccc3OCC)nc12 | 2.64%
CC(C)(C)NC[C@H](O)COc1nsnc1N1CCOCC1 | 0.28%
COc1ccccc1N1CCN(CCN2C(=O)CC3(CCCC3)CC2=O)CC1 | 4.95%
CN1CCN(c2ccc3ccccc3n2)CC1 | 2.77%
O=C(NCc1ccccn1)Nc1nnc(-c2ccco2)o1 | -0.32%
C=CCNC(N)=S | 3.29%
CCN(CC)C(=O)c1ccc(C2=CC3(CCNCC3)Oc3cccc(O)c32)cc1 | 1.73%
COC[C@H](C)Oc1cc(O[C@@H](C)Cc2ccccc2)cc(C(=O)Nc2ccc(C(=O)O)cn2)c1 | 6.34%
O=C(O)C[C@H]1CC[C@H](c2ccc(NC(=O)c3nnc(Nc4ccc(F)c(F)c4)o3)cc2)CC1 | -2.12%
O=C(O)c1nn(Cc2ccc(Cl)cc2Cl)c2ccccc12 | 12.9%
CS(=O)(=O)N1CCc2c(-c3cnc(N)nc3)nc(N3CCOCC3)nc21 | 7.6%
CC(C)NC(=O)N1CC[C@H](NC2=Nc3cc(F)ccc3N(CC(F)F)c3ccc(Cl)cc32)C1 | 4.02%
O=C1NC(=O)[C@@]2(CCOc3ccc(F)cc32)N1 | 2.6%
CCC(=O)c1cc(-c2ccc(Cl)cc2)n(-c2ccc(S(N)(=O)=O)cc2)c1C | -1.42%
CCOC(=O)C1=C(C)NC(=S)NC1c1cccc(O)c1 (centres unmarked) | 8.81%
CCS(=O)(=O)c1cccc(-c2cc(C(=O)NC3CCN(C)CC3)c(C)c3[nH]c4ncc(C)cc4c23)c1 | 13.5%
CC(=O)OCC(CCn1cnc2cnc(N)nc21)COC(C)=O | 1.86%
O=C1C(=O)N(Cc2ccc(Cl)c(Cl)c2)c2ccccc21 | 14.1%
O=C[C@H](F)[C@@H](O)[C@@H](O)[C@H](O)CO | 4.92%
COc1ccc(C(=O)NCc2ccc(OCCN(C)C)cc2)cc1OC | 9.12%
CNC(=C[N+](=O)[O-])NCCSCc1ccc(CN(C)C)o1 | 3.34%

Sample 3 — method: competition protein-binding microarray; molecule type: double-stranded DNA, one strand shown; sample: in vitro; concentration: 2 µM; added: Cbf1 competitor, 0.05 µM; reading: higher = stronger binding; constant ends, left off below: … GTCTTGATTCGCTTGACGCTGCTG
Target: Phosphate system positive regulatory protein PHO4, full length, GST-tagged (PHO4, Saccharomyces cerevisiae, UniProt P07270, residues 1-312)
Setting: whole 60-bp probe, lowest competitor level
Residues (chain): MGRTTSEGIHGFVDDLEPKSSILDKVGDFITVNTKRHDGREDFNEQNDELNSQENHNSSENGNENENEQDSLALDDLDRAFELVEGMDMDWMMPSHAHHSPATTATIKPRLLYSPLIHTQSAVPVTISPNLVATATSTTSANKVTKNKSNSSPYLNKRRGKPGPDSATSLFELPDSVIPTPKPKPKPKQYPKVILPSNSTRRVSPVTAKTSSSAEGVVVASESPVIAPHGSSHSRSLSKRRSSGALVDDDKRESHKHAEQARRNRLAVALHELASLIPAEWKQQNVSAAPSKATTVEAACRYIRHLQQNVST
Oligonucleotide | fluorescence intensity [a.u.]
GAGACGGACGAGAGTGACGTGCTTTGGGTTGAGACG | 5450
TATTTTGGAGTTAGGGTTGTGATGCTTGACGATAAC | 4460
CAGGCATAGCCCCGTCACGTTCTACGATAAGAACTT | 10700
GTTACGTTCTGTGGTGGCGTGCCGACTTCCAAGTCC | 6950
ATGTGTAAATCCGATACCAATAAAGTCAATGATAGG | 4700
AAAGCGGTAATTTTTCACGTGGTATCAAATATCTAT | 14400
TGCGCAACAACTTGTCACTGTACTTTATGTCTAGAA | 2940
AGAATCAAAGCTCACCACGTCATGGTTGCGAAAGCC | 5960

Sample 4 — cell line: HEK-293T; observed: pseudovirus infection; method: FDA-approved drug library screen; organism: VSV pseudotyped with SARS-CoV-2 spike; concentration: 10 µM; time: 16 h; relative to: vehicle-treated
SMILES | GFP-positive cells
Cc1nc(-c2ccc(OCC(C)C)c(C#N)c2)sc1C(=O)O | 74%
N#C/C(=C1/SC[C@@H](c2ccc(Cl)cc2Cl)S1)n1ccnc1 | 79%
COc1ccnc(C[S+]([O-])c2nc3ccc(OC(F)F)cc3[nH]2)c1OC (centres unmarked) | 77.4%
C[N+]12CCC(CC1)C(OC(=O)C(O)(c1ccccc1)c1ccccc1)C2 (centres unmarked) | 93.7%
CCn1cc(C(=O)O)c(=O)c2cc(F)c(N3CCNCC3)cc21 | 63.3%

Sample 5 — observed: enzyme activity; mode: inhibitor; setting: without DTT
Target: Replicase polyprotein 1ab, main protease (rep, Severe acute respiratory syndrome coronavirus 2, UniProt P0DTD1)
Structure (SMILES) | IC50 [nM]
C=C1C(=O)[C@]23[C@H](O)[C@H]1CC[C@@H]2[C@@]12CO[C@]3(O)C[C@@H]1C(C)(C)CC[C@@H]2O | 2600
CNC(=O)ON(C(C)=O)C(=O)NC | 1300
C[C@@](Cc1ccc(O)c(O)c1)(NN)C(=O)O | 3600
CN(C)CCNc1nc2cc(O)ccc2c2c1C(=O)c1ccccc1-2 | 3000
CCOC(=S)SSC(=S)OCC | 6000

Sample 6 — method: RNA Bind-n-Seq; molecule type: RNA; sample: in vitro; concentration: not given; relative to: input RNA pool; reading: higher = stronger binding
Target: RING finger protein unkempt homolog, zinc fingers 1-6, GST-SBP tag (UNK, Homo sapiens, UniProt Q9C0B0, residues 30-357)
Sequence of UniProt Q9C0B0 (30-357, looked up): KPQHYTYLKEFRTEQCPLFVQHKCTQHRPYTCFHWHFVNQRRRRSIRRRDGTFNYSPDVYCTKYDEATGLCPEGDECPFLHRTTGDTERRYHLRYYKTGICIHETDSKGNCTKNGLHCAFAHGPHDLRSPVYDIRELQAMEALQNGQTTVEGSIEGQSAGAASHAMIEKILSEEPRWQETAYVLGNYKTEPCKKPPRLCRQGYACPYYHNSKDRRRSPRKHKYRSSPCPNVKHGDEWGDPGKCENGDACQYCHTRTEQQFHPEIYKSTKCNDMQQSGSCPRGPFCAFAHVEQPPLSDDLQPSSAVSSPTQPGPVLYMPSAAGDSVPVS
Setting: RNA with constant flanks, human and mouse sites, ends assumed
Constant ends, left off below: GGGAGUUCUACAGUCCGACGAUC … CAACAGAGGAUUGAGCAUCA
Oligonucleotide | bound/input enrichment [ratio]
CAGUACAUUUCUCCAUUUCAUGAUGUUCCAAUUUAUGCAGACAAGGAUGUGUUCCACAUGGUGGUUGAGGUUCCACGCUGGUCCAACGCCAAAAUGGAGAUUGCUACAAAGGACCCUUUA | 0.166
UCCUGCCCCGACUCUUCUGAACCAGCUGUACAAGUCCAGUUAGAUUUUUCCACACUCACCAGGUCUGUUUAUUCAGAUAGGGGUGAUGAUUCUCCCGAUUCUUCCCCAGAAGAACAGAAA | 2.27
AAAGAGAUGAUUAAGAAGACAACAAAACUGAUUGAGACUACAUCCAACAUGAACUCCAGUUACAUUAAGUUUCUAAAACAGGCAGCAGAUAAUUCAGAAAUGACUUCUGCUAUGAAGUUA | 0.136
GUUAUUUUAAUAAUUCCUUUAAAUUUUAUCUGUUGCUGUUACCUCUUGAAAUAUGAUUUAUUUAGAUUGCUAAUCCCACUCAUUCAGGAAAUGCCAAGAGGUUUUCUGUGGGGGAAAUGG | 4.5
AGUAUGAUUAAUACAACAGGUGCCGUGGAUUCAGGGUCCUCCUCCUCUUCCUCCUCUUCUAGUUUUGUGAAUGGUGCUACUAGCAAAAACCUUCCAGCUGUACAAACUGUUGCUCCAAUG | 1.52
CAAAGUAUUGAACGUUCUCAUCGGAUUGCCACAGAGACUGACCAGAUUGGCUCAGAAAUCAUAGAAGAGCUGGGGGAACAACGAGACCAGUUAGAACGUACCAAGAGUAGACUGGUAAAC | 0.356
GAUACUUUAUUUCGGUGGGAACAAGAUGAAAUACCAAGCUCUUUAAUAUUGGAAGGUGUUGAACCACAGAGUACAUGUGAAUUAGAAGUGGAUGCUGUAGCUGCUGAUAUCUUAAAUCGU | 0.856
AUCACCAUGUUGGAAGCAGCACUGGGACUUGAGCGAGCUCACAUGGGAAUGUUUACUGAAUUAGCUAUUCUAUACUCUAAAUUUAAGCCUCAGAAAAUGAGGGAGCACCUGGAGCUGUUC | 0.885

Single results of other studies
Oligonucleotide | target | assay | test system | conditions | how to read | measurement | value
CGGA | Eukaryotic initiation factor 4A-I (EIF4A1, Homo sapiens, UniProt P60842, residues 1-406, full length assumed) | RNA Bind-n-Seq | RNA, in vitro | 15 pmol, 4-mer, random 30-nt RNA, single round, added: 3 µM RocA, 2 mM AMP-PNP | relative to: mean of 4-mers, higher = stronger binding | 4-mer enrichment Z-score | 0.401

Some of these lines once more (sample 4):
SMILES | GFP-positive cells
C[N+]12CCC(CC1)C(OC(=O)C(O)(c1ccccc1)c1ccccc1)C2 (centres unmarked) | 93.7%
N#C/C(=C1/SC[C@@H](c2ccc(Cl)cc2Cl)S1)n1ccnc1 | 79%
CCn1cc(C(=O)O)c(=O)c2cc(F)c(N3CCNCC3)cc21 | 63.3%
Cc1nc(-c2ccc(OCC(C)C)c(C#N)c2)sc1C(=O)O | 74%
COc1ccnc(C[S+]([O-])c2nc3ccc(OC(F)F)cc3[nH]2)c1OC (centres unmarked) | 77.4%
